Experimental data pooled from the literature.
Each line is one published result; not all experiments were run side by side. ± marks the error that the study gave.
Chain of UniProt P34972 (whole entry, looked up): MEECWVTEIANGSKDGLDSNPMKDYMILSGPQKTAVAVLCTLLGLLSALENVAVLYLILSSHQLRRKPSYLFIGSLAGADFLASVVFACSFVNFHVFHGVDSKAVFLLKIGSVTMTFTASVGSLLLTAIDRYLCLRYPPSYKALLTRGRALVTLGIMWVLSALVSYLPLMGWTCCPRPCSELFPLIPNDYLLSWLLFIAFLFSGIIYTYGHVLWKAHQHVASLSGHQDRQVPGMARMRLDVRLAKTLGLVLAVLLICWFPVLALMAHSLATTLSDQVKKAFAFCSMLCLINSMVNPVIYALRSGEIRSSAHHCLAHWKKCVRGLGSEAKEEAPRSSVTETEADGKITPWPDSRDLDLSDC
Chain of UniProt Q8NER1 (whole entry, unmodified, looked up): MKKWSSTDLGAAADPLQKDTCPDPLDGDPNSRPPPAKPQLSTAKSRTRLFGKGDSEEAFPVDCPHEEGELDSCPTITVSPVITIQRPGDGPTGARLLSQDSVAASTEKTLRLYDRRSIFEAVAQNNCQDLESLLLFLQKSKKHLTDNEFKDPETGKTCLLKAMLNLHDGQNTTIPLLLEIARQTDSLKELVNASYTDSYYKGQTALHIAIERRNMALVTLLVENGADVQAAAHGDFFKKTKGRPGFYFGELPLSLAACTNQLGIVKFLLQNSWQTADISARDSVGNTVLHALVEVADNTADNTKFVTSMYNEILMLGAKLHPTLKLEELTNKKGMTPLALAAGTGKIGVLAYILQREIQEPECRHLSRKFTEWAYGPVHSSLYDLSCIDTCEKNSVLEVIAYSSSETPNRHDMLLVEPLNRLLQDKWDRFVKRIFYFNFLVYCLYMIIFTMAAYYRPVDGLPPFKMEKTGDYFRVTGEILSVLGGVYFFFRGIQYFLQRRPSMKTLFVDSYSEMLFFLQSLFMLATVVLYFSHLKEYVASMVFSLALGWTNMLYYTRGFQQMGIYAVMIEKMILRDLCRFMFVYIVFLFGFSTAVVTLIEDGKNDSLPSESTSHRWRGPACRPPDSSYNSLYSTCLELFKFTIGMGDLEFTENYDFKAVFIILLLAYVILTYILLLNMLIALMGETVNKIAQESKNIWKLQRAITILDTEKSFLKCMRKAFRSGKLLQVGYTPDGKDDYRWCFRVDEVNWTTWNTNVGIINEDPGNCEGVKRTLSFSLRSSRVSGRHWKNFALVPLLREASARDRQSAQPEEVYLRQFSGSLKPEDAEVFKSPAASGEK
Chain of UniProt P21554 (whole entry, unmodified, looked up): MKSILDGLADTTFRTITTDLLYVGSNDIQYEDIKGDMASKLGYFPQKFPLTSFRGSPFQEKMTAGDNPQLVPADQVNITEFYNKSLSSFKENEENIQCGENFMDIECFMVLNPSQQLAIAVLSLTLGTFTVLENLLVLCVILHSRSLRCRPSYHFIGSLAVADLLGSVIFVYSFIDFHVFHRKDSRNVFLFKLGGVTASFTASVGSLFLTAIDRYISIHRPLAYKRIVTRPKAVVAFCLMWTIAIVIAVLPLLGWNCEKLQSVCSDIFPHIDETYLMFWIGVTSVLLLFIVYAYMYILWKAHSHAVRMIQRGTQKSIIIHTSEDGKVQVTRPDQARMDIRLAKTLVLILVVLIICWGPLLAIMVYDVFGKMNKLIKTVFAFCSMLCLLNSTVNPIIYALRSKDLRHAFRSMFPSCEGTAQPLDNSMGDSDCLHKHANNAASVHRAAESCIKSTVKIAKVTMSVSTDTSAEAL
Chain of UniProt P25123 (whole entry, unmodified, looked up): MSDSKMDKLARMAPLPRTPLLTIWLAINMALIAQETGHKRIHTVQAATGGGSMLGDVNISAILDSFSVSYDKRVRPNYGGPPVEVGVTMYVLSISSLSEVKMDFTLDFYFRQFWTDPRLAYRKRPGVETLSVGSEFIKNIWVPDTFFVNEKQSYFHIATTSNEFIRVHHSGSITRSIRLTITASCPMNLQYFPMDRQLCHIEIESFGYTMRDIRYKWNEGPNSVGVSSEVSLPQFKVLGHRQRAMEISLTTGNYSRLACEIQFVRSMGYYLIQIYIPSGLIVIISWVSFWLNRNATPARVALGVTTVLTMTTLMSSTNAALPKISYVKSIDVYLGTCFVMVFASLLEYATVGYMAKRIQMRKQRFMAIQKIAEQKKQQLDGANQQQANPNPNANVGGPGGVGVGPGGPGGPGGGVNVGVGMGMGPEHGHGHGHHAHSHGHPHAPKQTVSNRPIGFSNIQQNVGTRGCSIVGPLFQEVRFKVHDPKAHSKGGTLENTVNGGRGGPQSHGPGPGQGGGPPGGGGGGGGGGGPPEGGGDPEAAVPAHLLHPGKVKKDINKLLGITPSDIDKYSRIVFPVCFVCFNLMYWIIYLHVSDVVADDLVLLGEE
Chain of UniProt P47746 (whole entry, looked up): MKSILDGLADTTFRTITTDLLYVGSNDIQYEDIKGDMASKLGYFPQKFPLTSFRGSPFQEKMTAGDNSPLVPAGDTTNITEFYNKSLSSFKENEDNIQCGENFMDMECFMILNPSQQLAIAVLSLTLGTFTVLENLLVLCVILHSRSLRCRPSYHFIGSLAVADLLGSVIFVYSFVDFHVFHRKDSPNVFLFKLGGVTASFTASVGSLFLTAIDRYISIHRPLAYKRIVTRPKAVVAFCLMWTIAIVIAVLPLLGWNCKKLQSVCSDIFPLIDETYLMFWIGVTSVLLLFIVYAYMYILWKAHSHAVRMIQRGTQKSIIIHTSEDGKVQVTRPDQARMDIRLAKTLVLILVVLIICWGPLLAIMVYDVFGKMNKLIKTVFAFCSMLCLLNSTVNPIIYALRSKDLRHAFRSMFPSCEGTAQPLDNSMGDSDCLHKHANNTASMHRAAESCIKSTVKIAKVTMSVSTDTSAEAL
Chain of UniProt P9WGR1 (whole entry, looked up): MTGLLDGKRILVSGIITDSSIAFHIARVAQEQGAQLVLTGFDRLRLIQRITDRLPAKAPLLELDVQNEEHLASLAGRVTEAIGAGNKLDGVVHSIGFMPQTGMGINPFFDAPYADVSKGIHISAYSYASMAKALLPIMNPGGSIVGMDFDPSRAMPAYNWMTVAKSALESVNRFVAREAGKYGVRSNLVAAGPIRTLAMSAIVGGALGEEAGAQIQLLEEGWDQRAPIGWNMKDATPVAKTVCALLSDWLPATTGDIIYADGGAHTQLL
Chain of UniProt P0A725 (whole entry, looked up): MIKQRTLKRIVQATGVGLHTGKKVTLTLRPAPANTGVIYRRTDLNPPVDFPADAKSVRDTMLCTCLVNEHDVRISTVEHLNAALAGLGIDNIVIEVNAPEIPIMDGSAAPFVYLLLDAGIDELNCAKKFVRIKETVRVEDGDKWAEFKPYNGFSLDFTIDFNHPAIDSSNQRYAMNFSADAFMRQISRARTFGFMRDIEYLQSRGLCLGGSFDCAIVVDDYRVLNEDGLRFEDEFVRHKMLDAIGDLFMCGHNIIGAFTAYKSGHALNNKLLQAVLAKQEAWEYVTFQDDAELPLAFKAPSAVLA

C=C(C)C1C2OC(=O)C1C1(O)CC3OC34C(=O)OC2C14C (stereo not drawn)  IC50 fold increase (Rdl (Drosophila melanogaster, UniProt P25123, T305V); GABA-induced current, antagonist, two-electrode voltage clamp; Xenopus oocytes; concentration not given; reference: mutant over wild type): 5000 fold
CC(C)c1nc2cc(O)ccc2c(=O)n1-c1ccc(C#N)cc1  potency shift (Transient receptor potential cation channel subfamily V member 1 (TRPV1, Homo sapiens, UniProt Q8NER1, E570Q); calcium influx, FLIPR; reference: mutant over wild type): 4.5 fold
CC[C@H](C)[C@H](N)C(=O)N[C@H](C(=O)N[C@@H](CO)C(=O)N[C@H](C(=O)N[C@H](C(=O)NCC(=O)N[C@@H](CC(=O)O)C(=O)N[C@@H](Cc1c[nH]c2ccccc12)C(=O)N[C@H](C(=O)N[C@@H](CCCCN)C(=O)N[C@@H](CC(C)C)C(=O)N[C@H](C(=O)N[C@H](C(=O)N[C@@H](CC(=O)O)C(=O)N[C@H](C(=O)N[C@H](C(=O)N[C@@H](CC(N)=O)C(=O)N[C@@H](CCCCN)C(=O)N[C@@H](Cc1ccccc1)C(=O)N[C@H](C(=O)N[C@@H](CCCCN)C(=O)N[C@@H](CCCCN)C(=O)O)[C@@H](C)O)C(C)C)[C@@H](C)O)[C@@H](C)CC)[C@@H](C)CC)C(C)C)[C@@H](C)CC)[C@@H](C)O)[C@@H](C)CC  kon (lipid vesicle binding, stopped-flow FRET; POPC vesicles; pH 7.5): 12000 M^–1 s^–1
COC(=O)c1ccc2c(C=C3C(=O)C4CCN3CC4)cn(Cc3ccccc3)c2c1  Emax (Cannabinoid receptor 2 (CNR2, Homo sapiens, UniProt P34972); cAMP level increase; CHO expressing human CB2; added: forskolin): 200 ± 8.6%
CC(C)C[C@H](NC(=O)[C@H](Cc1ccccc1)NC(=O)CNC(=O)CNC(=O)[C@@H](N)Cc1ccc(O)cc1)C(=O)O  delay to current onset (K+ current, agonist, photo-uncaging; rat locus coeruleus neurons): 50 to 100 ms
O=C1C(=Cc2cn(Cc3ccc(F)cc3)c3ccccc23)N2CCC1CC2  adenylyl cyclase activity (Cannabinoid receptor 1 (Cnr1, Mus musculus, UniProt P47746); Neuro2A; 1 µM, 5 min, added: CB1 antagonist O-2050 1 µM): inhibited
CC[C@H](C)[C@H](N)C(=O)N[C@H](C(=O)NCC(=O)N[C@H](C(=O)N[C@H](C(=O)N[C@@H](CC(=O)O)C(=O)N[C@@H](CO)C(=O)N[C@@H](CC(C)C)C(=O)N[C@H](C(=O)N[C@@H](CCCCN)C(=O)N[C@@H](Cc1c[nH]c2ccccc12)C(=O)N[C@H](C(=O)N[C@H](C(=O)N[C@@H](CC(=O)O)C(=O)N[C@H](C(=O)N[C@H](C(=O)N[C@@H](CC(N)=O)C(=O)N[C@@H](CCCCN)C(=O)N[C@@H](Cc1ccccc1)C(=O)N[C@H](C(=O)N[C@@H](CCCCN)C(=O)N[C@@H](CCCCN)C(=O)O)[C@@H](C)O)C(C)C)[C@@H](C)O)[C@@H](C)CC)[C@@H](C)CC)C(C)C)[C@@H](C)CC)[C@@H](C)O)[C@@H](C)CC  kon (lipid vesicle binding, stopped-flow FRET; POPC vesicles; pH 7.5): 12000 M^–1 s^–1
C[C@@](O)(C(F)F)[C@H](NC(=O)c1ccc(C#CC#CC2CC2)cc1)C(=O)NO  k6 (EI* to EI rate) (UDP-3-O-acyl-N-acetylglucosamine deacetylase (Escherichia coli K-12, UniProt P0A725); enzyme activity, inhibitor): 0.0058 ± 0.0006 min⁻¹
CCCCCn1cc(C(=O)c2ccc3ccccc3c2)c2ccccc21  Emax decrease (Cannabinoid receptor 1 (CNR1, Homo sapiens, UniProt P21554, I267L); Gαi1 engagement, agonist, BRET; reference: wild type): ~40%
CC[C@H](C)[C@H](NC(=O)[C@H](CCCCN)NC(=O)CNC(=O)[C@@H](NC(=O)[C@@H](NC(=O)[C@H](CC(N)=O)NC(=O)[C@H](CC(=O)O)NC(=O)[C@@H](N)CC(=O)O)C(C)C)[C@@H](C)CC)C(=O)N[C@@H](Cc1c[nH]c2ccccc12)C(=O)N[C@@H](CO)C(=O)N[C@@H](CCCCN)C(=O)N[C@@H](CC(C)C)C(=O)N[C@H](C(=O)N[C@H](C(=O)N[C@H](C(=O)N[C@H](C(=O)N[C@H](C(=O)N[C@@H](CCCCN)C(=O)N[C@H](C(=O)N[C@@H](Cc1ccccc1)C(=O)N[C@H](C(=O)N[C@@H](CCCCN)C(=O)O)[C@@H](C)O)[C@@H](C)CC)[C@@H](C)O)[C@@H](C)CC)C(C)C)[C@@H](C)O)[C@@H](C)CC  koff (lipid vesicle dissociation; POPC vesicles; pH 7.5): 0.48 s^–1
O=C(N=P12CN3CN(CN(C3)C1)C2)c1ccccn1.[Cl][Pd][Cl]  CD band decrease (Albumin (ALB, Homo sapiens, UniProt P02768); adduct reversibility, circular dichroism; concentration not given, 1 h, added: 3-fold citric acid): 12%
CC[C@H](C)[C@H](N)C(=O)N[C@H](C(=O)N[C@@H](CCCCN)C(=O)N[C@H](C(=O)N[C@H](C(=O)NCC(=O)N[C@@H](CC(=O)O)C(=O)N[C@@H](CC(C)C)C(=O)N[C@H](C(=O)N[C@@H](CCCCN)C(=O)N[C@@H](Cc1c[nH]c2ccccc12)C(=O)N[C@H](C(=O)N[C@H](C(=O)N[C@@H](CC(=O)O)C(=O)N[C@H](C(=O)N[C@H](C(=O)N[C@@H](CC(N)=O)C(=O)N[C@@H](CO)C(=O)N[C@@H](Cc1ccccc1)C(=O)N[C@H](C(=O)N[C@@H](CCCCN)C(=O)N[C@@H](CCCCN)C(=O)O)[C@@H](C)O)C(C)C)[C@@H](C)O)[C@@H](C)CC)[C@@H](C)CC)C(C)C)[C@@H](C)CC)[C@@H](C)O)[C@@H](C)CC  koff (lipid vesicle dissociation; POPC vesicles; pH 7.5): 0.11 s^–1
CC[C@H](C)[C@H](NC(=O)CNC(=O)[C@H](CC(=O)O)NC(=O)[C@H](CC(C)C)NC(=O)[C@@H](NC(=O)[C@H](CC(N)=O)NC(=O)[C@H](CCC(N)=O)NC(=O)CNC(=O)[C@H](CC(C)C)NC(=O)[C@H](CCCCN)NC(=O)[C@H](CCC(=O)O)NC(=O)[C@@H](NC(=O)[C@H](CCCCN)NC(=O)[C@H](CCC(=O)O)NC(=O)[C@H](Cc1ccccc1)NC(=O)[C@H](CC(C)C)NC(=O)[C@H](CCCCN)NC(=O)[C@H](Cc1c[nH]c2ccccc12)NC(=O)[C@@H](N)CCC(=O)O)[C@@H](C)CC)[C@@H](C)CC)C(=O)N[C@H](C(=O)N[C@@H](CCCCN)C(=O)N[C@@H](CC(C)C)C(=O)NCC(=O)N1CCC[C@H]1C(=O)N[C@@H](CC(C)C)C(=O)N[C@@H](CC(C)C)C(=O)N[C@@H](C)C(=O)N[C@@H](CC(C)C)C(=O)N[C@@H](CC(C)C)C(=O)NCC(=O)N[C@@H](CCC(N)=O)C(=O)N[C@@H](CC(C)C)C(=O)N[C@H](C(=O)N[C@@H](CCC(N)=O)C(=O)N[C@H](C(=O)N[C@@H](C)C(=O)N[C@@H](CC(C)C)C(N)=O)[C@@H](C)CC)[C@@H](C)O)[C@@H](C)CC  koff (membrane binding, stopped-flow FRET; POPC vesicles; pH 7.5, room temperature): 7.5 s⁻¹
CC[C@H](C)[C@H](N)C(=O)N[C@H](C(=O)N[C@@H](CO)C(=O)N[C@H](C(=O)N[C@H](C(=O)NCC(=O)N[C@@H](CC(=O)O)C(=O)N[C@@H](CC(C)C)C(=O)N[C@H](C(=O)N[C@@H](CCCCN)C(=O)N[C@@H](Cc1c[nH]c2ccccc12)C(=O)N[C@H](C(=O)N[C@H](C(=O)N[C@@H](CC(=O)O)C(=O)N[C@H](C(=O)N[C@H](C(=O)N[C@@H](CC(N)=O)C(=O)N[C@@H](CCCCN)C(=O)N[C@@H](Cc1ccccc1)C(=O)N[C@H](C(=O)N[C@@H](CCCCN)C(=O)N[C@@H](CCCCN)C(=O)O)[C@@H](C)O)C(C)C)[C@@H](C)O)[C@@H](C)CC)[C@@H](C)CC)C(C)C)[C@@H](C)CC)[C@@H](C)O)[C@@H](C)CC  koff (lipid vesicle dissociation; POPC vesicles; pH 7.5): 0.033 s^–1
CC(C)C[C@H](NC(=O)CN)C(=O)NCC(=O)N[C@@H](CCCCN)C(=O)N[C@@H](CC(C)C)C(=O)N[C@@H](CC(C)C)C(=O)N[C@@H](Cc1c[nH]cn1)C(=O)N[C@@H](C)C(=O)N[C@@H](C)C(=O)N[C@@H](CCCCN)C(=O)N[C@@H](CCCCN)C(=O)N[C@@H](CC(C)C)C(=O)NCC(=O)N[C@@H](CCCCN)C(=O)N[C@@H](C)C(=O)N[C@@H](Cc1c[nH]c2ccccc12)C(=O)N[C@@H](CC(C)C)C(=O)NCC(=O)N[C@@H](CCC(=O)O)C(=O)N[C@@H](CC(C)C)C(=O)N[C@@H](CC(C)C)C(=O)N[C@@H](C)C(=O)N[C@@H](C)C(=O)O  koff (membrane binding, stopped-flow FRET; POPC vesicles; room temperature, extrapolated from POPC/POPG): 24 s⁻¹
CCCCCCc1ccc(Oc2ccccc2Br)c(O)c1  residence time (Enoyl-[acyl-carrier-protein] reductase [NADH] (inhA, Mycobacterium tuberculosis, UniProt P9WGR1); inhibitor, progress curve global fit; 20 °C): 9 ± 1 min
CC[C@H](C)[C@H](NC(=O)[C@H](Cc1c[nH]c2ccccc12)NC(=O)[C@H](CCCCN)NC(=O)[C@@H](NC(=O)[C@H](CC(C)C)NC(=O)[C@H](CCCCN)NC(=O)CNC(=O)[C@@H](NC(=O)[C@@H](NC(=O)[C@H](CO)NC(=O)[C@@H](NC(=O)[C@@H](NC(=O)[C@H](CCCCN)NC(=O)[C@H](CCC(N)=O)NC(=O)[C@H](C)NC(=O)[C@H](CCSC)NC=O)[C@@H](C)CC)[C@@H](C)CC)[C@@H](C)O)[C@@H](C)CC)C(C)C)C(=O)N[C@H](C(=O)N[C@@H](CCCCN)C(=O)N[C@H](C(=O)N[C@H](C(=O)N[C@@H](CC(N)=O)C(=O)N[C@@H](CCCCN)C(=O)N[C@@H](Cc1ccccc1)C(=O)N[C@H](C(=O)N[C@@H](CCCCN)C(=O)N[C@@H](CCCCN)C(=O)O)[C@@H](C)O)C(C)C)[C@@H](C)O)[C@@H](C)CC (racemic)  koff (membrane binding, stopped-flow FRET; POPC vesicles; pH 7.5, room temperature): 10 s⁻¹
CCOC(=O)C1C(OC(c2ccc(Cl)cc2)c2ccc(Cl)cc2)CC2CCC1N2C (single isomer, unassigned)  Ki (rat L-type calcium channel; binding, radioligand displacement; rat cortex; dihydropyridine site, inactive if below 75% at 10000 nM, added: [3H]nitrendipine): inactive

A few entries again:
CC[C@H](C)[C@H](N)C(=O)N[C@H](C(=O)N[C@@H](CO)C(=O)N[C@H](C(=O)N[C@H](C(=O)NCC(=O)N[C@@H](CC(=O)O)C(=O)N[C@@H](CC(C)C)C(=O)N[C@H](C(=O)N[C@@H](CCCCN)C(=O)N[C@@H](Cc1c[nH]c2ccccc12)C(=O)N[C@H](C(=O)N[C@H](C(=O)N[C@@H](CC(=O)O)C(=O)N[C@H](C(=O)N[C@H](C(=O)N[C@@H](CC(N)=O)C(=O)N[C@@H](CCCCN)C(=O)N[C@@H](Cc1ccccc1)C(=O)N[C@H](C(=O)N[C@@H](CCCCN)C(=O)N[C@@H](CCCCN)C(=O)O)[C@@H](C)O)C(C)C)[C@@H](C)O)[C@@H](C)CC)[C@@H](C)CC)C(C)C)[C@@H](C)CC)[C@@H](C)O)[C@@H](C)CC  koff (lipid vesicle dissociation; POPC vesicles; pH 7.5): 0.033 s^–1
CCCCCCc1ccc(Oc2ccccc2Br)c(O)c1  residence time (Enoyl-[acyl-carrier-protein] reductase [NADH] (inhA, Mycobacterium tuberculosis, UniProt P9WGR1); inhibitor, progress curve global fit; 20 °C): 9 ± 1 min
